# Results gathered from unrelated publications.
# Each numbered part is a random draw from the data of one study; scales do not carry over between parts.

# Study 1
# Target: RING finger protein unkempt homolog, zinc fingers 1-6, GST-SBP tag (UNK, Homo sapiens, UniProt Q9C0B0, residues 30-357)
# Chain of UniProt Q9C0B0 (30-357, looked up): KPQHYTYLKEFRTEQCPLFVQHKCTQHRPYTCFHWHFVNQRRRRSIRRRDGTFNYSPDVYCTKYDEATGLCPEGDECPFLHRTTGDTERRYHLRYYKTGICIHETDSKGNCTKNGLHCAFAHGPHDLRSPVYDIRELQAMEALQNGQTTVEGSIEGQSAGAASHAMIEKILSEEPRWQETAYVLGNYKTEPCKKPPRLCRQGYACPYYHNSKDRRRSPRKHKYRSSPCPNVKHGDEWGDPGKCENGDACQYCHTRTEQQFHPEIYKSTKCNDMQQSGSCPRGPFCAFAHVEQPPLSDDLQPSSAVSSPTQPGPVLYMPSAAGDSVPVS
# Method: RNA Bind-n-Seq
# Form: RNA
# Sample: in vitro
# Concentration: not given
# Setting: RNA with constant flanks, ends assumed
# Baseline: input RNA pool
# Reading: higher = stronger binding
# Shared flanks, not repeated: GGGAGUUCUACAGUCCGACGAUC … CAACAGAGGAUUGAGCAUCA
Strand,bound/input enrichment [ratio]
CCAAUCGUGGAGCAGUACUUGAAGACAAAAAAGAACUCUAGUCAUUUAAUCAUGAAAUACAUCCGCUGCCGGCUGGUGACAUUUGUGGUUAUACUGUUGGCAUGUAUCUACUUGAGCUAU,0.195
AAAGACAAGUGUGUCCUGUGUGGAGGACUAACCUUAGAGAGGAGGAGAUUCCACCUGGCCCCGCUUUAUGGCUGUCAAUUGUCUAUUUUGCCAUUUAUAAGCUGAAAGAAGGCACUAAAG,0.239
ACAGAAUGGAGCUAUGGACGUUAAUUUGACCGUCUACUCCAAUCCCCGCCAAGAGACUGGCACCGCUGGACAUCCAACAUACCAAUUUUCUGCUAAUACAGGUCCUGCACAUUACAUGAC,0.124
CUAGGUGUGAGAGCUCUGGGGCACUGUGGGUGCGGUGAUCUGCAGGUAAAGCCCCACACCACCGACAGUGCUCUGUAGGAAUAUAUGAAGGAUAUUUGCUUCUUGUGAGUCCAUUUCUUA,0.498
AGAACAGGUUUCUCUCUGUCCUUGACUCUUGGGUCUGUGGGCCAUGGCAUGAGUGUUUUCCCGCCGCCGAUUGGAGGGAAAGCUUUGUGACACUUAGUACUGUGUUUUUAAGAAGAAAUA,1.09
GGAAAAUAUGUGUAUGUAGUAACAGAACUUAUGAAAGGAGGUGAAUUGCUGGAUAAGAUUCUCCGACAGAAGUUUUUCUCAGAGCGAGAGGCCAGCGCUGUCCUGUUUACUAUAACCAAA,0.422
CUGAGCCAGCUAGACCAGCGCUUUUCAGAGAAUUACUCUACCCAUAGCAGUCCUCUGGACCGUAUUUAUUACCACCGAGAGCUUCUCUGCUAUUCUCUGGAUGGACUUCGUGUAGAUCUA,0.196
UCUAAAAUUGUUCGUGUUAGAUCAGAUUUGCUUGAUGAGUUAAUUAAAUCAGGGCAGUUAUCCGGAGUGAAAUUUAUAGCAGAGCUUGGUGUCCCAUUGUCACAGGUUAAAAGCAUCUCA,0.325
UGAGACUGUAGUUGGGUGUCCCGGGUGCCCAUGGACUGCUUGAUGCUGCUUAACUCUUCAUUCCGAUAACUUUCUAGUGACAGCUUCUUCCAGUGGUGACAAAAUAGUGGUGUCAAGUUG,0.441
GUCAGAUUUGAAAAUGCAGAUUUAAAUGAUACAUCAAGAAAUCUGGAAUUUCAUGAAAUACACCGUACUGGGAAUGAACCGCCUUUGUUGAUUAUGAUUGGCUACAGUGAUGGAAUGCAG,0.457
AUGGGGUGGGAGGGGGAAAAAGGCCGACAACACUCGACCGCUUGUUUUGUGCCAAAUGCUUUCCGAUAAGGACAUAAUGUUUUUGACUGAUGUAAAUACUAACUCUAGAAUAGGCAGGAU,0.786

# Study 2
# Target: RNA binding protein fox-1 homolog 2, RRM domain, GST-SBP tag (RBFOX2, Homo sapiens, UniProt O43251-10, residues 100-194)
# Method: RNA Bind-n-Seq
# Form: RNA
# Sample: in vitro
# Concentration: 365 nM
# Setting: natural RNA segment, single round, ends assumed
# Baseline: no-protein control
# Reading: higher = stronger binding
# Shared flanks, not repeated: GGGAGUUCUACAGUCCGACGAUC … UGGAAUUCUCGGGUGCCAA
# Residues (chain): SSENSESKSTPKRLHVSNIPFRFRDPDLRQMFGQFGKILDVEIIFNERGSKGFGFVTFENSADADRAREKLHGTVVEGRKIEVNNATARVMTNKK
Strand,RBNS enrichment (R)
ACCUCCACACAAGACCCUGUUGACUCAGGAGGAUCUCCGCAAUGGUUGAUUAAUAGCUGAAGCAAAGUAUCCAAAUUUGUGACAAGGGUUUGUGUGUAUCCCCUCCGUGA,0.271
CCUGGUUGCUAUUCUAAGAAUAAUUAGGAGGAGGAACCUAGCCAAUUGCAGCUCAUGUCCGUGGGUGUGUGCACGGGUGCAUAUGUUGGAAGGGGUGCCUGUCCCCUUGG,1.62
UUCAAUGUAGACUGCCAUUCUGUGUGGUCUUCCCAUUAAAUGUGAACAUUUUAAUAUGUAUGCAUUCACCUUGCCUCUUGCACAAAUGUCAAAAUGGAAAGAUGGGAAUG,0.323
CACACUUUUCUCACAUUGAGUUGUAUGCAGAAUGUAGCUUCAGAUGUAUUCAUUAUAGUUACAAUAUCCAACUAAAAAGUACGCUAUCUAGAAGUAUACCGACCAAAAUC,0.416
CCUCCAGCCCACACCACCCAGACCUAGGCUUCCCUCUUCUCAGGAUCCACCACAGGGUUAGGGGACAGGAAGCCUGUUCUAUUCUCAAUAAAUCUUACAAAAUUCCAAAA,0.692
GAAGCUAGGGCGCCUACCCCCCCACCCGGAGGACCCCUGCGGCCCCCUGCCUAGAGGAGCACCAUCUACAGUUGUGCCAUUCCCCAGCCACUGCCUUCAUGCUGCCCCCG,0.468
AUUUUUCUUCGCUGUUACGAAUUUACAGCAGCAUUUGUACAUGUAAAAUUAAAGGCUAUUUUCUGGUCUGGUUUGGUAUGUCUAGAGUUCUUCAGUUGAAGCCAAGGCAC,1.38
GCCAAGCACCUUGAAUGGGAGGGGCCUCACAGAGGGCAGGGCCAGGGUCCAGCAGGGGUGGGGGGUUCCUGCUCUGCCCCUGCCCGUCCCCACCCAGUCUUGCCCUCCCA,1.54
UCCGGAGAGCACCCCAGCAGCAUCCAGAAGCAGCUGCAGUGUUGCUGCCACCACCCUCCUGUCUGCCUCUUCAAAGUCUCCUGUGACAUUUUUUCUUUGGUCAGAAGCCA,0.416
AUAUAUGACGGUAUAUUUGCAAAAAGAGAAAGAAAAAUCUGGUAUUUGCAAUGAUCUGUGCCUUCUUUCUACCACCCUCUUGAUUGGAGCUUUUGUGAUGCAGCUACCAU,4.29
GCAGGAGCUGAGGAGGGUGAACAAACCCCGAGGGAGGCCCGGCCCUUGCUCCCGAGUUGGGGGGAGGGGGUGUGGCAACGUGCCCCCCGCAGAGGCCACGCAUGUUUGAC,2.61
UGAUAGUCCUUGCAAGUAAGUCAAGGUUUUAUCCUGAUUGGAAAUAGAAGACAUUUCCGGUUGAGAGAACAGAUUCGUUGGAAGCUUAACUUUUGUUGCCUCUUAACGCC,0.291

# Study 3
# Target: Interferon regulatory factor 7, full length, phosphomimetic (IRF7, Homo sapiens, UniProt Q92985, residues 1-503, S101K/S471D/S472D/S475D/S476D/S477D/S483D/S484D/S487D)
# Chain of UniProt Q92985 (whole entry, unmodified, looked up): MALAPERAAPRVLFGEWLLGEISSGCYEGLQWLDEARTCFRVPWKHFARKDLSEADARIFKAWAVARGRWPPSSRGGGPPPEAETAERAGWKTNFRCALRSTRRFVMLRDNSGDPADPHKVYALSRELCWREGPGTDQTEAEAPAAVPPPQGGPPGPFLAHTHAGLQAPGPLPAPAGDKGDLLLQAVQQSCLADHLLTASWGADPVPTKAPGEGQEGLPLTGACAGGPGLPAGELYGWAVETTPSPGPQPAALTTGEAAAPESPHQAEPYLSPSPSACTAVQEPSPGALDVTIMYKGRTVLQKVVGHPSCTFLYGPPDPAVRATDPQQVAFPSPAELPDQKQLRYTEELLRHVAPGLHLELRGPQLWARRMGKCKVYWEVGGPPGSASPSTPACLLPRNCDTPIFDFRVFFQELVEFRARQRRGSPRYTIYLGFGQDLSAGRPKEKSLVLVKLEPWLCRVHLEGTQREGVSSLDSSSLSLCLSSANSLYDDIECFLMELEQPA
# Method: protein-binding microarray
# Form: double-stranded DNA, one strand shown
# Sample: in vitro
# Concentration: 250 nM
# Setting: 60-bp whole probe
# Together with: salmon DNA 0.4 mg/ml
# Baseline: random background probes
# Reading: higher = stronger binding
# Shared flanks, not repeated: GCCTAGCAC … GTCTTGATTCGCTTGACGCTGCTG
Strand,log fluorescence [z-score]
TTAGGACTGGGTCTCGGTCAGTGCTAG,0.192
TTAAATTTCAGTATCGATTAGTGCTAG,1.26
CACGATTTCAGACTGGAGACGTGCTAG,0.267
GACGGTATCGGGAGTGGGGACGTGCTA,-0.489
AAGTTTACCCATCTCCAGTAGTGCTAG,0.647
GACGGACCGGACTTTCGGGACGTGCTA,-0.285
GACGGTATCGTCACTGGGGACGTGCTA,-0.415
TCAAATTTTAATAACACACTGTGCTAG,0.149
GACGATATCGGGTCTCGAGACGTGCTA,0.0622
GACGGTTTCGACACTGGTGACGTGCTA,3.7
GACGATCGCAGTCTCGAGACGTGCTAG,-0.0831
GACGGTTTCAACTTTCGGGACGTGCTA,1.61
GACGGTATCGGACTAGGGACGTGCTAG,0.165
TCAGCTTTTTAGATCGTACTGTGCTAG,-0.148
TTAGGACTGGACACTGGGGTAGTGCTA,-0.583
GACGTACTGGGGACTGGAGACGTGCTA,-0.157
GACGGTATCATACTGCTGACGTGCTAG,-0.209
GAACTTCTGCATTACAGCTAGTGCTAG,-0.192
TTATGTTTCGACTTTCGGTTAGTGCTA,6.8
TCACTTTCCTTCTTGAAACTGTGCTAG,2.76
TCATGTATTTGTCCCTAACTGTGCTAG,0.7

# Study 4
# Target: Histone acetyltransferase KAT6A, winged helix 2, GST fusion (KAT6A, Homo sapiens, UniProt Q92794, residues 85-181)
# Method: protein binding microarray
# Form: double-stranded DNA, one strand shown
# Sample: in vitro
# Concentration: not given
# Setting: 8-mer, flanks averaged, mean of 2 arrays, mostly near background
# Baseline: not given
# Reading: higher = stronger binding
# Target sequence (chain): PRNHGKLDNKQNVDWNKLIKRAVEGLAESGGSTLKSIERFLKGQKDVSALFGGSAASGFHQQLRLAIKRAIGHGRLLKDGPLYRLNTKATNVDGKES
Strand,E-score
ATAGGTTA,-0.124
GGCCGCGA,0.109
AGACCCCT,-0.184
AGTTCAAG,0.0742
ACCAATAG,-0.142
CAATTTAG,0.00924
ATGGACAA,0.0365
GTACTTAA,-0.0931
ACCCCCGA,-0.101
ATGAAAAG,-0.181
GGCCGTGA,0.00632
AGTACGAA,0.0485
CACTCGAC,-0.0143
CGCTCAGC,0.229
ACATCTTA,-0.0331
CATTGAGA,-0.00412
CTGACATA,-0.0225
AGATATTG,-0.0325
GGGAGTGA,0.115
CAGTAGCC,0.0639
ACGTGTAG,-0.351
CTTGACAA,0.0158

# Study 5
# Target: PABPC1L2, full length, GST fusion (mouse, UniProt A0ABA7IW68)
# Method: RNAcompete
# Form: RNA
# Sample: in vitro
# Concentration: 20 nM
# Setting: 7-mer, probes averaged, single round
# Baseline: mean of 7-mers
# Reading: higher = stronger binding
# Construct (chain): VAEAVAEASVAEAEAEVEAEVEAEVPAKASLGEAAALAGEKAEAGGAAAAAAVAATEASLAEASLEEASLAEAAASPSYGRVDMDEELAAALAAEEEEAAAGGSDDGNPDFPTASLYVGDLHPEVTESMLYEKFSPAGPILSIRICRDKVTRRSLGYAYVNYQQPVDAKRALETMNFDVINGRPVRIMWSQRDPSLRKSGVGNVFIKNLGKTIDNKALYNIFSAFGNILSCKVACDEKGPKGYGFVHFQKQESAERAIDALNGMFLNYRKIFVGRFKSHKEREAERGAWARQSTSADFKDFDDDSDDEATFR
Strand,7-mer Z-score
CCUGGCG,-0.229
UGAGGUC,-0.153
AAAUUAC,1.35
CGGGCCC,-0.376
CUCGACC,-0.251
UGUGCUG,-0.135
AUAUCGA,-0.117
AGUGGCA,0.167
UUUUUUU,-0.44
CACUGUC,-0.226
UCUCUGA,-0.151
UCAAUCG,-0.19
CACAUCA,-0.289
CUGUGGU,-0.237
GGGAUUC,0.037
CGCGGCA,-0.0844
CAAUCUU,-0.148
CCCAAUA,-0.0554
GUACUUG,-0.128
UUUGACG,-0.235
CGAAUUA,-0.124
CCAUAGC,-0.324
CAGCUUG,-0.115
GAAAUCA,0.448
UUAACAA,0.066

# For quick reference, copied from above (study 5):
Strand,7-mer Z-score
GAAAUCA,0.448
GGGAUUC,0.037
CACUGUC,-0.226
CAGCUUG,-0.115
CAAUCUU,-0.148
CCAUAGC,-0.324
